Measurements collected from several papers.
A part holds a random share of what one study measured. Substitutions count along the parent as printed.
Chain of UniProt Q13177 (whole entry, looked up): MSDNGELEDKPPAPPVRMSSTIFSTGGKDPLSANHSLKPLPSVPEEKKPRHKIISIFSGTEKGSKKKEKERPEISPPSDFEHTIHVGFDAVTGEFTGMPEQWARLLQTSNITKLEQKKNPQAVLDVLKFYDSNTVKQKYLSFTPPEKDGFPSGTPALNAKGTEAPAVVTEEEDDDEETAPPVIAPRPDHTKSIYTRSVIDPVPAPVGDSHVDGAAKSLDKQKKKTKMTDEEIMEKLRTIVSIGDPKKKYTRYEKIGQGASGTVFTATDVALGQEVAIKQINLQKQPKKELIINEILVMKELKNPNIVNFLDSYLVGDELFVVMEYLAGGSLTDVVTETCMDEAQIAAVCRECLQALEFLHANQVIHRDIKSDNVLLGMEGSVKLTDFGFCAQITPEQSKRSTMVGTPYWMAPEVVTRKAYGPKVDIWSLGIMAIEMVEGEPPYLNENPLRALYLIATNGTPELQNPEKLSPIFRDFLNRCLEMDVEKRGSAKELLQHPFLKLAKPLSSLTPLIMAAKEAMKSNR
Chain of UniProt Q09013 (whole entry, looked up): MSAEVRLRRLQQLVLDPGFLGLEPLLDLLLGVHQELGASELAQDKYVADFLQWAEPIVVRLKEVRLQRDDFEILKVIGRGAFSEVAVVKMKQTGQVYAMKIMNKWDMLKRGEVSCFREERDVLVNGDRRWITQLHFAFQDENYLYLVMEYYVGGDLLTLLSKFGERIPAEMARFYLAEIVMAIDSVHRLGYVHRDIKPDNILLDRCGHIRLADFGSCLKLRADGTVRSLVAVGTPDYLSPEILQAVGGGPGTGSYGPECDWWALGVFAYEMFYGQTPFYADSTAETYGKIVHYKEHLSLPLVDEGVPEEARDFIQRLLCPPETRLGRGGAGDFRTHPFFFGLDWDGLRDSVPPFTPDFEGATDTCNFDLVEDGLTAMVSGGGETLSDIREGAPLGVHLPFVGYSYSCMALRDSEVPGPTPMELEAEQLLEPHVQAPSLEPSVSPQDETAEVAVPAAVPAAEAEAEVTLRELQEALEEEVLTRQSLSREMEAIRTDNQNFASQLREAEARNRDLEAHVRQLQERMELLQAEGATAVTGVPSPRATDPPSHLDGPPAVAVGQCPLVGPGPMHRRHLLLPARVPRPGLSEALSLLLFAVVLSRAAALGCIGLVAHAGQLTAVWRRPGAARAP
Chain of UniProt Q9HC98 (whole entry, looked up): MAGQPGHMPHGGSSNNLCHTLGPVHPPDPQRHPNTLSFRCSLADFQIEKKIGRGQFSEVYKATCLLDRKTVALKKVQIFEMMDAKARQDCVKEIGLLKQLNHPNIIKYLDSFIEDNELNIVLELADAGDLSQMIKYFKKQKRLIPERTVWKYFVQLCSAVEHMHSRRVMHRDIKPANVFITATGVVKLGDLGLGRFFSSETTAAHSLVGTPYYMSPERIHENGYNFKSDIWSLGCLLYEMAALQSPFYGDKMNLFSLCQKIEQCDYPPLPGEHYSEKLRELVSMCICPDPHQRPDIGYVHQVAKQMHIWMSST
Chain of UniProt O43781 (whole entry, looked up): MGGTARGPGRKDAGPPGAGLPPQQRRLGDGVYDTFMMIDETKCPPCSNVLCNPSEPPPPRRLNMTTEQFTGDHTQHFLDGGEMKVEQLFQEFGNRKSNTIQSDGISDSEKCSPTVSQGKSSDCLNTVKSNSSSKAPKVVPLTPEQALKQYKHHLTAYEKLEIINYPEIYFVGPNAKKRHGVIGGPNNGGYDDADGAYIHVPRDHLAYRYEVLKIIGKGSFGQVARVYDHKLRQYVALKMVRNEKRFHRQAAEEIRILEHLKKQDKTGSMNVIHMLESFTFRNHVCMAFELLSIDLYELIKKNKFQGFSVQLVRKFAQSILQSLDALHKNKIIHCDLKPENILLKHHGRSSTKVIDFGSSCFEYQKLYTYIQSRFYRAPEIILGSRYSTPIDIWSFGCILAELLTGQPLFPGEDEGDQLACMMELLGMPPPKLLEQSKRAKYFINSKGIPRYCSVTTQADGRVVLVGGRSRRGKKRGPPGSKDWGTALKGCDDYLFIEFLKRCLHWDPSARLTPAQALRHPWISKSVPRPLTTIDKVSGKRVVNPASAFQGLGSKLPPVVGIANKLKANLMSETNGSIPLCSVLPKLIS
Chain of UniProt Q8TDR2 (whole entry, looked up): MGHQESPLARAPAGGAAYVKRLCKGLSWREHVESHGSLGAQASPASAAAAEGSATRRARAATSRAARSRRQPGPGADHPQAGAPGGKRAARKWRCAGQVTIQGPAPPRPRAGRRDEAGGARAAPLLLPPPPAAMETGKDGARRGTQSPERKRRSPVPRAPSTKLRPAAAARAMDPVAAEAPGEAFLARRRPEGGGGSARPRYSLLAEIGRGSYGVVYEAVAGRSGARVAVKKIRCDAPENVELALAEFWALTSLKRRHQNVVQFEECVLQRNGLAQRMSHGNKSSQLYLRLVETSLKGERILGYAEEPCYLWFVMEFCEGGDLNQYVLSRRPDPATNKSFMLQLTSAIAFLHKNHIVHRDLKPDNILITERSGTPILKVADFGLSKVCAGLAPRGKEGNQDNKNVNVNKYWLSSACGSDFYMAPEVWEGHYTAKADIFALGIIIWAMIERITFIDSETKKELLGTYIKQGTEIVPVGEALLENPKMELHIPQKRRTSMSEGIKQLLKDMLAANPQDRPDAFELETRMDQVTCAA
Chain of UniProt P06493 (whole entry, looked up): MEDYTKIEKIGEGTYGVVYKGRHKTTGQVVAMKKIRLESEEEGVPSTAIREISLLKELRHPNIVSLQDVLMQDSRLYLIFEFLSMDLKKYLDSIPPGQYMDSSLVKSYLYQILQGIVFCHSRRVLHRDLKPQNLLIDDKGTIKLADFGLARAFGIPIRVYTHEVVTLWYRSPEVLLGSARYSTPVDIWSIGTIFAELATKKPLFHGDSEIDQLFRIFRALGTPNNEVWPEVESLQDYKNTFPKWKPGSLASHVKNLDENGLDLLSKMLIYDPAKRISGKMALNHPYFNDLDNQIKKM
Chain of UniProt Q13554 (whole entry, looked up): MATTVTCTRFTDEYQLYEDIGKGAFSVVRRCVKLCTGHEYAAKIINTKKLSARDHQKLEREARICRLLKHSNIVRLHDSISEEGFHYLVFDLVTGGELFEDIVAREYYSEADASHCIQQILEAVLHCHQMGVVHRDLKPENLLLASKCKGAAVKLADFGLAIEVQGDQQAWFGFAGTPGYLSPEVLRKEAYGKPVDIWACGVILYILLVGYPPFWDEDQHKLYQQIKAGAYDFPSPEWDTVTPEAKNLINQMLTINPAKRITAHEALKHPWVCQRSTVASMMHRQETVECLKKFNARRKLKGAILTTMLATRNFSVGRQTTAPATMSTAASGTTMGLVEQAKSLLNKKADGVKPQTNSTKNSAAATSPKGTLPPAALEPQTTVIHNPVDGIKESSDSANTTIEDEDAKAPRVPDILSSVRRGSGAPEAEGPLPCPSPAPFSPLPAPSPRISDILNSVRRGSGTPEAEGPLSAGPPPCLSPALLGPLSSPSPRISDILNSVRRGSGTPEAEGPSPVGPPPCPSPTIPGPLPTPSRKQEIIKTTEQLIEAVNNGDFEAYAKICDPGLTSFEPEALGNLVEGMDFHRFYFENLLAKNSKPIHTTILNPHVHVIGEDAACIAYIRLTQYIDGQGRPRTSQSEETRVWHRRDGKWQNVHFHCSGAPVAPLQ
Chain of UniProt O15530 (whole entry, looked up): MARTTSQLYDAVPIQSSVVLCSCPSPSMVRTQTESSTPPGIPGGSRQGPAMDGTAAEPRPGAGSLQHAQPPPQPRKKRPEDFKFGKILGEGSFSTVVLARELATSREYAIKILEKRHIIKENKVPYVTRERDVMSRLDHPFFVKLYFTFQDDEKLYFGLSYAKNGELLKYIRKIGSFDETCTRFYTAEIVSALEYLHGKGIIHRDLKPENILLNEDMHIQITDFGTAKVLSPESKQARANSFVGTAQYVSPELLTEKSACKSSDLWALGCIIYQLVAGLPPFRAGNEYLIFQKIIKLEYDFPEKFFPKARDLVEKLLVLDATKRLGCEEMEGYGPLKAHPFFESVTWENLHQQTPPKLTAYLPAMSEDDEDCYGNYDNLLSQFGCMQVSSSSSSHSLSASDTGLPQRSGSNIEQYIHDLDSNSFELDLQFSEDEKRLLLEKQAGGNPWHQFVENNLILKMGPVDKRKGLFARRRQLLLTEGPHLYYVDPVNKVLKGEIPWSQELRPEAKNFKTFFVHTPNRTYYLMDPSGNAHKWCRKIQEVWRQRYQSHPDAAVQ
Chain of UniProt O94768 (whole entry, looked up): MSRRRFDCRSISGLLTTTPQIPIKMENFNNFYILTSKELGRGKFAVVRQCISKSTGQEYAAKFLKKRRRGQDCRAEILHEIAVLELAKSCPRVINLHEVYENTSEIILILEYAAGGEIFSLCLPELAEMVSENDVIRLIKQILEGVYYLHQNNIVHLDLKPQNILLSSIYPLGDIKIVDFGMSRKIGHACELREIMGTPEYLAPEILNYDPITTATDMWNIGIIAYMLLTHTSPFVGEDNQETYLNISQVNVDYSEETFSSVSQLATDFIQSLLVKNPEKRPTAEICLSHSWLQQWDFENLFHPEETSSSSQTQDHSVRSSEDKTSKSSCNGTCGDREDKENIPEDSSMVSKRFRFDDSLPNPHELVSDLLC

Block 1
Target: Eukaryotic initiation factor 4A-I (EIF4A1, Homo sapiens, UniProt P60842, residues 1-406, full length assumed)
Chain of UniProt P60842 (whole entry, looked up): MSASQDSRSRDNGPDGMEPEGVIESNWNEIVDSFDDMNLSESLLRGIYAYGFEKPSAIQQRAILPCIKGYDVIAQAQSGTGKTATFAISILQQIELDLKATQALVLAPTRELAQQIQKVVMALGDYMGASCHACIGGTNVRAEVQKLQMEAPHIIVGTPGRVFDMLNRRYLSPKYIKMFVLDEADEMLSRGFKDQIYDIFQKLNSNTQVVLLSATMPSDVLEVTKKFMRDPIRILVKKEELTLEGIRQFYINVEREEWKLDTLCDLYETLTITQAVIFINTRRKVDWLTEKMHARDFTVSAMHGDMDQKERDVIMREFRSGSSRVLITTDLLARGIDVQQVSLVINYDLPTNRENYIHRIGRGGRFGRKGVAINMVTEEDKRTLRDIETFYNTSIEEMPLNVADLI
Technique: RNA Bind-n-Seq
Molecule type: RNA
Sample: in vitro
Concentration: 90 pmol
Setting: 4-mer, random 30-nt RNA, single round
With: 3 µM iPr-DMDA-PatA, 2 mM ADP, 2 mM phosphate
Relative to: input library
Reading: higher = stronger binding
`AUAA` gave a 4-mer enrichment of 1.53 fold.
`UGCG` has a 4-mer enrichment of 0.759 fold.
`AAGU` gave a 4-mer enrichment of 1.24 fold.
`GUAU` gave a 4-mer enrichment of 1.07 fold.
`AUCU` gave a 4-mer enrichment of 1.13 fold.
With `UCAG` the 4-mer enrichment was 1.02 fold.
With `GUAC` the 4-mer enrichment was 0.986 fold.
With `AGGC` the 4-mer enrichment was 0.868 fold.

Block 2
SMILES: Cc1ccc(NC2=CC(=O)c3sc(C)nc3C2=O)cc1
Read-out: enzyme activity
Mode: inhibitor
Concentration: 0.5 µM
Relative to: control
It gave 90.8% for remaining activity (ABL1 (Homo sapiens, UniProt P00519)).
It gave 88.7% for remaining activity (PDPK1 (Homo sapiens, UniProt O15530)).
For RPS6KA5 (Homo sapiens, UniProt O75582): remaining activity read 87.7%.
The remaining activity was 84.5% (MAP4K4 (Homo sapiens, UniProt O95819)).
It gave 109% for remaining activity (CAMK2B (Homo sapiens, UniProt Q13554)).
DYRK3 (Homo sapiens, UniProt O43781) — remaining activity: 96.2%.
The remaining activity was 99.6% (Cyclin-dependent kinase 6, with cyclin D3 (CDK6, Homo sapiens, UniProt Q00534)).
The remaining activity was 91.7% (STK16 (Homo sapiens, UniProt O75716)).
The remaining activity was 76.5% (MAPKAPK3 (Homo sapiens, UniProt Q16644)).
For Cyclin-dependent kinase 4, with cyclin D3 (CDK4, Homo sapiens, UniProt P11802): remaining activity read 93.7%.
It gave 86.5% for remaining activity (EPHA4 (Homo sapiens, UniProt P54764)).
For PHKG1 (Homo sapiens, UniProt Q16816): remaining activity read 88.7%.
It gave 98.5% for remaining activity (HIPK2 (Homo sapiens, UniProt Q9H2X6)).
It gave 69.7% for remaining activity (Cyclin-dependent kinase 1, with cyclin B (CDK1, Homo sapiens, UniProt P06493)).
STK17A (Homo sapiens, UniProt Q9UEE5) — remaining activity: 93.7%.

Block 3
Target: CCND2, cyclin fold, Cln2 fusion (human)
Technique: yeast growth competition, sequencing
Sample: yeast
Setting: weak parent motif
Relative to: not given
Reading: higher = stronger binding
Starting sequence: SCAPER docking peptide (human); SNARRSLNFGGST
`S12F` — result for “normalised enrichment score”: 0.582.
Under “normalised enrichment score”, `R5S` is recorded as 0.391.
For `L7N`, “normalised enrichment score” read -0.155.
`G10R`: “normalised enrichment score” 0.129.
`S6V`: “normalised enrichment score” 0.908.
Under “normalised enrichment score”, `S6M` is recorded as 1.
For `N2W`, “normalised enrichment score” read 0.284.
Under “normalised enrichment score”, `S6R` is recorded as 0.929.

Block 4
Compound: COc1ccc2c(c1)O[C@@H](c1ccc(OC)c(OC)c1)C[C@H]2NC(=O)C1(c2ccc3c(c2)OC(F)(F)O3)CC1
Concentration: 1 µM
It gave 93% for remaining binding (DMPK (Homo sapiens, UniProt Q09013); cell-free assay, competition with immobilised ligand).
The remaining binding was 100% (STK17B (Homo sapiens, UniProt O94768); cell-free assay, competition with immobilised ligand).
It gave 97% for remaining binding (PRKD3 (Homo sapiens, UniProt O94806); cell-free assay, competition with immobilised ligand).
For NEK6 (Homo sapiens, UniProt Q9HC98); cell-free assay, competition with immobilised ligand: remaining binding read 100%.
The remaining binding was 100% (MAPK1 (Homo sapiens, UniProt P28482); cell-free assay, competition with immobilised ligand).
It gave 92% for remaining binding (Aurora kinase A (AURKA, Homo sapiens, UniProt O14965); cell-free assay, competition with immobilised ligand).
For CDK19 (Homo sapiens, UniProt Q9BWU1); competition binding: remaining binding read 93%.
For MAP3K13 (Homo sapiens, UniProt O43283); cell-free assay, competition with immobilised ligand: remaining binding read 67%.
SYK (Homo sapiens, UniProt P43405); cell-free assay, competition with immobilised ligand — remaining binding: 100%.
It gave 100% for remaining binding (MAPK15 (Homo sapiens, UniProt Q8TD08); cell-free assay, competition with immobilised ligand).
STK35 (Homo sapiens, UniProt Q8TDR2); cell-free assay, competition with immobilised ligand — remaining binding: 98%.
PAK2 (Homo sapiens, UniProt Q13177); cell-free assay, competition with immobilised ligand — remaining binding: 100%.
EIF2AK2 (Homo sapiens, UniProt P19525); cell-free assay, competition with immobilised ligand — remaining binding: 100%.

For quick reference, copied from above (block 1):
`AAGU` gave a 4-mer enrichment of 1.24 fold.
`UGCG` has a 4-mer enrichment of 0.759 fold.
With `UCAG` the 4-mer enrichment was 1.02 fold.
